Experimental data from different studies.
Protocols differ between the studies behind these lines. ± marks the error that the study gave. In brackets after ≈: the same amount, converted by molar mass.

SMILES	assay	test system	conditions	scale	measurement	value
CCNc1cc2[o+]c3cc(NCC)c(C)cc3c(-c3ccccc3C(=O)OCCOCC[18F])c2cc1C	HPLC	rat, urine	60 min		intact compound	79 ± 7%
CC(=O)NCC(=O)NCC(=O)N[C@@H](CCCCNP(=O)(O)O)C(=O)NCC(=O)NCC(N)=O	non-enzymatic hydrolysis		100 µM, pH 7.8, no enzyme		initial velocity	4.95e-09 M/s
COc1ccc(C)cc1NC(=O)OC1CC2CCCC(C1)N2Cc1ccc(CC[18F])cc1 (centres unmarked)		mouse, fat	30 min, tumour-bearing		tracer uptake	8.58 %ID/g
C[C@@H](O)[C@H](NC(=O)[C@H](CCCCN)NC(=O)COCCN)C(=O)N[C@@H](CCCNC(=N)N)C(=O)NC(C)(C)C(=O)N[C@@H](CCCNC(=N)N)C(=O)NC(C)(C)C(=O)N[C@H](C(=O)N[C@@H](CO)C(=O)N[C@@H](Cc1c[nH]cn1)C(=O)N[C@@H](Cc1ccc(O)cc1)C(=O)NCC(=O)O)[C@@H](C)O		C57BL/6 mouse, blood	intravenous, 50 mg/kg, 10 h	baseline: leukocytes	monocytes	3 to 5%
C/C=C/C=C/C/C=C/CCCCCCCc1cccc(O)c1O		female Kunming mice, tumour-bearing, heart	intravenous, 10 mg/kg, 8 h		tissue concentration	4040 ± 320 ng/g
CC(CCC(=O)NCC(=O)O)C1CCC2C3CCC4CC(OC5OC(C(=O)O)C(O)C(O)C5O)CCC4(C)C3CC(O)C12C (centres unmarked)		human, C/C genotype, plasma	dose not given, geometric mean, sex-adjusted		glucuronide to parent ratio	2.61
CC(C)[C@H](NC(=O)CNC(=O)[C@H](CCC(N)=O)NC(=O)[C@H](C)N)C(=O)O		healthy male volunteers	intravenous, 90 mg/kg/h, 2 h, added: LPS 2 ng/kg		subjects given concomitant medication	0%
CN[C@](C)(C[18F])C(=O)O		SCID mouse SK-OV-3 xenograft, lung	30 min post injection		tissue uptake	2.9 ± 0.6 %ID/g
CC[C@H](C)C(=O)N1CCC(NC(=O)Nc2ccc(OC(F)(F)F)c(F)c2)CC1		human	oral, 8 mg, fed and fasted		half-life	48 to 60 h
CSCC[C@H](NC(=O)CNC(=O)[C@H](CC(=O)O)NC(=O)[C@@H](NC(=O)[C@@H](NC(=O)[C@@H](NC(=O)CNC(=O)[C@H](CCC(N)=O)NC(=O)[C@H](CCSC)NC(=O)[C@H](CC(=O)O)NC(=O)[C@H](C)NC(=O)[C@H](C)NC(=O)[C@@H](NC(=O)[C@H](CO)NC(=O)[C@@H](N)CC(C)C)[C@@H](C)O)C(C)C)C(C)C)[C@@H](C)O)C(=O)N[C@@H](C)C(=O)N[C@@H](CO)C(=O)NCC(=O)N[C@@H](CC(C)C)C(=O)N[C@@H](CC(=O)O)C(=O)N[C@@H](CCCCN)C(=O)N[C@@H](CC(=O)O)C(=O)N[C@@H](Cc1ccc(O)cc1)C(=O)N[C@@H](CC(C)C)C(=O)N[C@@H](CCCCN)C(=O)N1CCC[C@H]1C(=O)N[C@@H](CC(=O)O)C(=O)N[C@@H](CC(=O)O)C(=O)O		human, serum	intravenous, 1.66 mg/kg, patients, infusion		Cmax	6990 ng/mL
CC[C@H](C)[C@H](NC(=O)[C@H](CCCCN)NC(=O)CNC(=O)[C@H](CC(C)C)NC(=O)[C@@H](NC(=O)[C@H](C)NC(=O)[C@H](CCCCN)NC(=O)CNC(=O)[C@H](C)NC(=O)CNC(=O)[C@H](CCCCN)NC(=O)[C@H](CCSC)NC(=O)[C@H](CCCCN)NC(=O)[C@@H](NC(=O)[C@H](Cc1c[nH]c2ccccc12)NC(=O)[C@H](CC(C)C)NC(=O)[C@H](CCCCN)NC(=O)[C@H](CCCCN)NC(=O)[C@H](CC(C)C)NC(=O)[C@@H](N)CC(C)C)[C@@H](C)O)C(C)C)C(=O)N[C@@H](CCCCN)C(=O)NCC(=O)N[C@@H](CC(C)C)C(=O)N[C@@H](CC(C)C)C(=O)O	acrylamide quenching	PC:cholesterol vesicles, 250 µM lipid	2 µM, added: acrylamide		Stern-Volmer constant	1.77 ± 0.37 M⁻¹
NC(=O)[C@@H](CCCCNC(=O)CNC(=O)CCC(=O)NCCc1c[nH]cn1)NC(=O)[C@@H](Cc1ccc(O)cc1)NC(=O)[C@@H](CCCCNC(=O)CNC(=O)CCC(=O)NCCc1c[nH]cn1)NC(=O)Cc1ccc(CN2CCN(CC(=O)O)CCN(CC(=O)O)CC2)cc1 [fluorine-18 labelled]		human serum	4 h, 37 °C		serum stability	stable
Cn1cnc2ccc(Nc3c(F)ccc(NS(=O)(=O)N4CC(F)C4)c3Cl)c(Cl)c2c1=O		rat, plasma	STD10, steady state		AUC(tau)	4040 µg·h/mL
CCOc1cncc(-c2ccc(NC(=O)C3(c4ccnc(NS(=O)(=O)C5CC5)n4)CCOCC3)nc2)n1		NOD-SCID mice, Jurkat xenograft	subcutaneous, dose not given, alternate day dosing		toxicity	not toxic
CSCC[C@@H]1NC(=O)[C@@H]2CSSC[C@H](NC(=O)[C@H](CO)NC(=O)[C@H](C)N)C(=O)N[C@@H](CCCNC(=N)N)C(=O)N[C@@H]([C@@H](C)O)C(=O)N3CCC[C@H]3C(=O)N[C@@H](CCCCN)C(=O)N[C@@H](CC(=O)O)C(=O)N[C@H]3CSSC[C@H](NC(=O)[C@H](CCCCN)NC(=O)[C@H](CCCNC(=N)N)NC(=O)[C@H](CC(N)=O)NC1=O)C(=O)N[C@@H](CCCCN)C(=O)N[C@H]1CSSC[C@H](NC(=O)[C@@H]4CCCN4C(=O)[C@H](CC(=O)O)NC(=O)[C@H](C)NC3=O)C(=O)N[C@@H](C)C(=O)N[C@@H](CCCCN)C(=O)N[C@@H](CCC(=O)O)C(=O)N[C@@H]([C@@H](C)O)C(=O)NCC(=O)N[C@@H](CSSC[C@@H](C(N)=O)NC(=O)[C@H](CCCNC(=N)N)NC(=O)[C@H](CC(N)=O)NC1=O)C(=O)N1CCC[C@H]1C(=O)N[C@@H](Cc1ccc(O)cc1)C(=O)NCC(=O)N[C@@H](CCCCN)C(=O)N2		DA rat, pristane-induced arthritis, serum	subcutaneous, 0.1 mg/kg every other day, end of 21-day trial		total protein	4.34 g/dL
CC[C@H](C)[C@H](NC(=O)[C@H](CCC(=O)O)NC(=O)[C@H](CCC(=O)O)NC(=O)[C@H](Cc1ccccc1)NC(=O)[C@H](CC(=O)O)NC(=O)CNC(=O)[C@H](CC(N)=O)NC(=O)CNC(=O)CNC(=O)CNC(=O)CNC(=O)[C@@H]1CCCN1C(=O)[C@H](CCCNC(=N)N)NC(=O)[C@@H]1CCCN1C(=O)[C@H](N)Cc1ccccc1)C(=O)N1CCC[C@H]1C(=O)N[C@@H](CCC(=O)O)C(=O)N[C@@H](CCC(=O)O)C(=O)N[C@@H](Cc1ccc(O)cc1)C(=O)N[C@@H](CC(C)C)C(=O)O		male human, plasma	intravenous, 0.5 mg/kg, single dose, healthy volunteers		AUC(0-inf)	1.51 µg·h/mL
CCOP(=O)(OCC)OCCCCOC(=O)C(C)c1ccc(CC(C)C)cc1 (centres unmarked)		Fischer 344 rats, male	oral gavage, 1215 mg/kg daily, 7 days		rats with stomach ulcers	14.3%
CN(C)c1ccc(C(=O)NCCCCN2CCN(c3ccccc3O[11CH3])CC2)cc1		male Sprague Dawley rat, blood	iv, dose not given, added: cyclosporin A pretreatment	baseline: cyclosporin A over untreated	uptake ratio	1.16
CC(C)[C@H](NC(=O)CNC(=O)[C@H](CCC(N)=O)NC(=O)[C@H](C)N)C(=O)O	Probably drug-related	human	20 mg/kg, 3 days, thrice daily dosing		subjects with adverse events	0%
COC(=O)C[C@H](NC(=O)[C@H](C)NC(=O)[C@@H](NC(=O)[C@H](CC(=O)OC)NC(=O)[C@@H](NC(=O)c1ccc2ccccc2n1)C(C)C)C(C)C)C(=O)COc1c(F)cccc1F		rat pups	1 mg/kg, 1 h		arterial pH	7.42 ± 0.02
[18F]c1ccc2cc(-c3cnc(N4CCOCC4)nc3)[nH]c2c1	dynamic PET	Sprague-Dawley rats, both sexes, whole brain	intravenous, dose not given, 120 min		brain radioactivity	0.5 SUV
CC[C@H](C)[C@@H]1NC(=O)[C@H](CCC(=O)O)NC(=O)[C@H](C)NC(=O)[C@H](CC(C)C)NC(=O)[C@H](CC(C)C)NC(=O)C2(CCCC=CCCCCCC[C@@](C)(C(=O)N[C@@H](CC(N)=O)C(=O)N[C@@H](CC(C)C)C(=O)N[C@@H](CO)C(=O)O)NC(=O)[C@H](CCCCN)NC1=O)CCCC=CCCC[C@](C)(NC(=O)[C@H](CCCNC(=N)N)NC(=O)[C@H](CC(N)=O)NC(=O)[C@H](CCC(=O)O)NC(=O)[C@@H]1CCCN1C(=O)[C@H](CC(N)=O)NC(=O)c1ccc3c(c1)C(=O)OC31c3ccc(O)cc3Oc3cc(O)ccc31)C(=O)N[C@@H](C)C(=O)N[C@@H](CCCCN)C(=O)N[C@@H](CCCCN)C(=O)N2 (some centres unmarked)					solubility limit	2 µM (≈ 5.51 µg/mL)
COc1cc(C(=O)NCCOCCOCCOCCNC(=O)c2ccc([18F])nc2)ccc1NC(=O)C1NC(CC(C)(C)C)C(C#N)(c2ccc(Cl)cc2F)C1c1cccc(Cl)c1F (centres unmarked)		athymic male mice, HepG2 xenograft	4 h	baseline: tumour over blood	tumour-to-tissue ratio	3.54 ± 1.25
COc1cccc2c1C(=O)c1c(O)c3c(c(O)c1C2=O)CC(O)(C(CO)=NNC(=O)CCCCC(=O)NNC(=O)CCCc1ccc(I)cc1)CC3OC1CC(N)C(O)C(C)O1 (centres unmarked)		athymic nude mice, KPC tumours	20 mg/kg, KPC and KPC Cav1-/- tumours		toxicity	not toxic
CN(C)C(CNC(=O)Nc1cc(C(F)(F)F)ccc1N1CCOCC1)c1ccncc1 (centres unmarked)		mouse, serum	intraperitoneal, 180 mg/kg single dose		serum anion gap	19 mmol/L
CC(C)C[C@H](NC(=O)[C@H](CCCCN)NC(=O)[C@H](CCC(=O)O)NC(=O)[C@H](C)NC(=O)[C@@H](NC(=O)[C@H](CCCCN)NC(=O)[C@H](CC(=O)O)NC(=O)[C@H](Cc1ccc(O)cc1)NC(=O)[C@H](Cc1ccccc1)NC(=O)[C@H](C)NC(=O)[C@H](CCCCN)NC(=O)[C@H](CC(C)C)NC(=O)[C@H](Cc1c[nH]c2ccccc12)NC(=O)[C@@H](N)CC(=O)O)C(C)C)C(=O)N[C@@H](CCCCN)C(=O)N[C@@H](CCC(=O)O)C(=O)N[C@@H](C)C(=O)N[C@@H](Cc1ccccc1)C(=O)N1CCC[C@H]1C(=O)N[C@@H](CC(=O)O)C(=O)N[C@@H](Cc1c[nH]c2ccccc12)C(=O)N[C@@H](C)C(=O)N[C@@H](CCCCN)C(=O)N[C@@H](C)C(=O)N[C@@H](C)C(=O)N[C@@H](Cc1ccc(O)cc1)C(=O)N[C@@H](CC(=O)O)C(=O)N[C@@H](CCCCN)C(=O)N[C@@H](C)C(=O)N[C@@H](C)C(=O)N[C@@H](CCC(=O)O)C(=O)N[C@@H](CCCCN)C(=O)N[C@@H](C)C(=O)N[C@@H](CCCCN)C(=O)N[C@@H](CCC(=O)O)C(=O)N[C@@H](C)C(=O)N[C@@H](C)C(=O)O		cynomolgus monkey male, plasma	intravenous infusion, 8 mg/kg every other day, day 27		AUC(0-last)	527 µg·h/mL
COc1ccc(F)cc1S(=O)(=O)Nc1cnc2c(c1)C(=O)NCCO2		C57BL/6J mice, plasma	oral, 1 mg/kg		AUC(0-t)	325 ± 73 ng‧h/mL
N=C(N)NCc1ccc(C(=O)NCCCC[C@H](NC(=O)CCCCCCC(=O)NCCCC[C@H](NC(=O)N[C@@H](CCC(=O)O)C(=O)O)C(=O)O)C(=O)O)cc1[131I]		SCID mouse, PC-3 xenografts, stomach	2 h		tissue uptake	1.03 ± 0.62 %ID/g
CC(=CCC(O)C(C)=Cc1csc(C)n1)CC=CC(C)C(O)C(C)C(=O)C(C)(C)C(O)CC(=O)O (centres unmarked)		human, plasma	intravenous infusion, 8.5 mg/m2 KOS-1584, 3 h infusion, cycle 1		AUC	0.0395 ± 0.0163 µg·h/mL

For quick reference, copied from above:
SMILES	assay	test system	conditions	scale	measurement	value
CC[C@H](C)[C@@H]1NC(=O)[C@H](CCC(=O)O)NC(=O)[C@H](C)NC(=O)[C@H](CC(C)C)NC(=O)[C@H](CC(C)C)NC(=O)C2(CCCC=CCCCCCC[C@@](C)(C(=O)N[C@@H](CC(N)=O)C(=O)N[C@@H](CC(C)C)C(=O)N[C@@H](CO)C(=O)O)NC(=O)[C@H](CCCCN)NC1=O)CCCC=CCCC[C@](C)(NC(=O)[C@H](CCCNC(=N)N)NC(=O)[C@H](CC(N)=O)NC(=O)[C@H](CCC(=O)O)NC(=O)[C@@H]1CCCN1C(=O)[C@H](CC(N)=O)NC(=O)c1ccc3c(c1)C(=O)OC31c3ccc(O)cc3Oc3cc(O)ccc31)C(=O)N[C@@H](C)C(=O)N[C@@H](CCCCN)C(=O)N[C@@H](CCCCN)C(=O)N2 (some centres unmarked)					solubility limit	2 µM (≈ 5.51 µg/mL)
COc1cc(C(=O)NCCOCCOCCOCCNC(=O)c2ccc([18F])nc2)ccc1NC(=O)C1NC(CC(C)(C)C)C(C#N)(c2ccc(Cl)cc2F)C1c1cccc(Cl)c1F (centres unmarked)		athymic male mice, HepG2 xenograft	4 h	baseline: tumour over blood	tumour-to-tissue ratio	3.54 ± 1.25
COc1cccc2c1C(=O)c1c(O)c3c(c(O)c1C2=O)CC(O)(C(CO)=NNC(=O)CCCCC(=O)NNC(=O)CCCc1ccc(I)cc1)CC3OC1CC(N)C(O)C(C)O1 (centres unmarked)		athymic nude mice, KPC tumours	20 mg/kg, KPC and KPC Cav1-/- tumours		toxicity	not toxic
